Published values pooled from the literature.
Lines come from different studies, so protocols differ. Values joined by “and” are separate records of one study, mostly repeats; a detail may differ. ± gives the spread as reported.

O=S(=O)(c1cccc2cnccc12)N1CCCNCC1
Cmax (human, plasma; intravenous, 30 mg): 101 ng/mL

NS(=O)(=O)OC[C@@H]1C[C@@H](n2ccc3c(N[C@H]4CCc5ccccc54)ncnc32)C[C@@H]1O
Cmax (human; intravenous, 15 mg/m^2 single dose, day 1): 121 ng/mL

Cc1nc(-c2ccc(OCC(C)C)c(C#N)c2)sc1C(=O)O
Cmax (human, plasma; oral, 80 mg, together with: verinurad 15 mg): 2070 ng/mL

CCCCC1(CCCC)CN(c2ccccc2)c2cc(SC)c(OCC(=O)N[C@@H](C(=O)NCC(=O)O)c3ccccc3)cc2S(=O)(=O)C1
Cmax (LC-MS/MS; human, plasma; oral, 2.5 mg, single dose, fasted): 0.413 ng/mL

C=CC(=O)N1CCC(CNc2ncnc(N)c2-c2ccc(Oc3ccccc3)cc2)CC1
Cmax (human, plasma; 500 mg, single dose, geometric mean): 1510 ng/mL

CC(=O)O[C@H]1C(=O)[C@@]2(C)[C@H]([C@H](OC(=O)c3ccccc3)[C@]3(O)C[C@H](OC(=O)[C@H](O)[C@@H](NC(=O)c4ccccc4)c4ccccc4)C(C)=C1C3(C)C)[C@]1(OC(C)=O)CO[C@@H]1C[C@@H]2O
Cmax (human patients on multiple protease inhibitors, plasma; iv, 100 mg/m^2 over 3 h, cycle 1): 1220 ± 480 nM

C=CC(=O)N1C[C@H](Nc2ncnc3[nH]ccc23)CC[C@@H]1C
Cmax (adjusted geometric mean; human, plasma; oral, 50 mg single dose, together with: rifampicin 600 mg once daily for 8 days): 204 ng/mL

Cc1ccc(C(=O)N2CCOC[C@H]2Cc2cccc(-n3nccn3)c2)c(-n2nccn2)c1
Cmax (healthy human, plasma; oral, 100 mg initial dose, day 8): 693 ng/mL

CNCc1ccc(-c2[nH]c3cc(F)cc4c3c2CCNC4=O)cc1
Cmax (human patients, plasma; oral, 840 mg twice daily, day 1, arithmetic mean): 1380 ng/mL

COC(=O)[C@H](c1ccccc1Cl)N1CCC(S)/C(=C\C(=O)O)C1 (stereo partly drawn)
Cmax (human patients, CYP3A4 wt/wt, plasma; oral, 75 mg clopidogrel daily, day 7, median): 3.41 ng/mL

CCCc1nn(C)c2c(=O)[nH]c(-c3cc(S(=O)(=O)N4CCN(C)CC4)ccc3OCC)nc12
Cmax (healthy male human, plasma; oral, dose not given, day 8, adjusted geometric mean, together with: sacubitril/valsartan): 168 ng/mL

CCCNS(=O)(=O)Nc1ncnc(OCCOc2ncc(Br)cn2)c1-c1ccc(Br)cc1
Cmax (human; oral, 10 mg, fixed-dose combination, fasted, geometric mean, together with: tadalafil 40 mg): 194 ng/mL

O=CC[C@@H](O)[C@H](O)[C@H](O)CO
Cmax (HPLC-fluorescence; human patients, plasma; oral, 45 mg/kg/day, cycle 2): 426000 ± 145000 nM

CCOc1ccc(Cc2cc([C@@H]3O[C@H](SC)[C@@H](O)[C@H](O)[C@H]3O)ccc2Cl)cc1
Cmax (human, plasma; oral, 150 mg, range of daily means): 82.5 to 115 ng/mL

COc1ccc(-n2nc(C(N)=O)c3c2C(=O)N(c2ccc(N4CCCCC4=O)cc2)CC3)cc1
Cmax (human male and female, plasma; oral, 10 mg, geometric least squares mean, together with: tacrolimus 5 mg daily for 3 days): 157 ng/mL

CN1CC[C@H](c2c(O)cc(O)c3c(=O)cc(-c4ccccc4Cl)oc23)[C@H](O)C1
Cmax (human advanced solid tumours, plasma; intravenous, 60 flavopiridol, together with: oxaliplatin 85 + leucovorin/5-FU): 940 ± 240 nM

COc1ccc2nc([S@@+]([O-])Cc3ncc(C)c(OC)c3C)[nH]c2c1
Cmax (human, CYP2C19 ultrarapid metabolizers, plasma; oral, 40 mg/day, day 1): 7750 ± 3010 ng/mL

NC(=O)N1CCC(CC(=O)N2CCC([C@H]3c4ncc(Br)cc4CCc4cc(Cl)cc(Br)c43)CC2)CC1
Cmax (human, plasma; oral, 150 mg twice daily, cycle 2 day 15, together with: gemcitabine 750 mg/m2): 1500 ng/mL

CN(C)Cc1c(C(=O)NCCOc2ccc(C(=O)NO)cc2)oc2ccccc12
Cmax (human, plasma; oral, 80 mg, single dose on day -3): 164 ± 60.7 ng/mL

Cc1ccc(NC(=O)c2ccc(CN3CCNCC3)cc2)cc1Nc1nccc(-c2cccnc2)n1
Cmax (human patients, plasma; oral, 400 mg/day of imatinib, day 14 of cycle 1, together with: IL-2 6 MIU/day days 10-14): 727 ng/mL

Cc1ccc(NC(=O)c2ccc(CN3CCN(C)CC3)cc2)cc1Nc1nccc(-c2cncc(-c3oncc3C)c2)n1
Cmax (older healthy human adults, plasma; oral, 37.5 mg single dose, fed, mean): 1350 ng/mL

O=C(/C=C/c1cccc(S(=O)(=O)Nc2ccccc2)c1)NO
Cmax (human moderate liver dysfunction, plasma; intravenous, 400 mg/m^2, 30 min infusion, cycle 1 day -7): 22100 ng/mL

CCN1CCN(Cc2ccc(Nc3ncc(F)c(-c4cc(F)c5nc(CO)n(C(C)C)c5c4)n3)nc2)CC1
Cmax (human patients, plasma; oral, 150 mg, single dose, geometric mean): 45.7 ng/mL

CCOc1c([C@H](C)n2nc(C)c3c(N)ncnc32)cc(Cl)c(F)c1[C@@H]1CNC(=O)C1
Cmax (healthy fasted humans, plasma; oral, 10 mg): 793 ± 169 nM

C=CC(=O)N1CCC([C@@H]2CCNc3c(C(N)=O)c(-c4ccc(Oc5ccccc5)cc4)nn32)CC1
Cmax (human; oral, 480 mg, single dose, mean): 406 ng/mL

CC(O)C(C)n1ncn(-c2ccc(N3CCN(c4ccc(OCC5COC(Cn6cncn6)(c6ccc(Cl)cc6Cl)O5)cc4)CC3)cc2)c1=O (stereo not drawn)
Cmax (human male, plasma; oral, dose not given, day 3, geometric mean, together with: itraconazole 200 mg pretreatment): 730 ng/mL

Cc1ccsc1C(=O)Nc1cc(CN2CCN(C(=O)CO)CC2)ccc1/C=C/c1n[nH]c2ccccc12
Cmax (human patients, plasma; oral, 50 mg/day, day 28): 2970 ± 373 ng/mL

CS(=O)(=O)n1cc2c(n1)CN([C@H]1CO[C@H](c3cc(F)ccc3F)[C@@H](N)C1)C2
Cmax (healthy male human, plasma; oral, 10 mg once weekly, day 1, fasted, geometric mean): 184 nM

C#C[C@]1(CO)O[C@@H](n2cnc3c(N)nc(F)nc32)C[C@@H]1O
Cmax (human, plasma; oral, 2.25 mg once daily, geometric mean, together with: doravirine 100 mg once daily): 68.3 nM

CN(Cc1cnc2nc(N)nc(N)c2n1)c1ccc(C(=O)N[C@@H](CCC(=O)O)C(=O)O)cc1
Cmax (human, plasma; oral, 10 mg, together with: apremilast 30 mg twice daily): 427 ng/mL

CC(C)(Sc1ccncc1-c1ccc(C#N)c2ccccc12)C(=O)O
Cmax (human, plasma; oral, 15 mg, together with: febuxostat 40 mg): 21.2 ng/mL

COc1cc(C(=O)O)ccc1NC(=O)[C@@H]1N[C@@H](CC(C)(C)C)[C@](C#N)(c2ccc(Cl)cc2F)[C@H]1c1cccc(Cl)c1F
Cmax (human, plasma; oral, 200 mg, steady state, together with: venetoclax 400 mg): 3770 ng/mL

Cc1[nH]c2ccccc2c1CCNCc1ccc(/C=C/C(=O)NO)cc1
Cmax (human; 20 mg, day 15, together with: IM 400 mg): 15.6 ng/mL

COc1ccnc(C[S+]([O-])c2nc3ccc(OC(F)F)cc3[nH]2)c1OC (stereo not drawn)
Cmax (human, CYP2C19 poor metabolizers, plasma; oral, 40 mg/day, day 1): 5940 ± 2450 ng/mL

CS(=O)(=O)OC[C@H](O)[C@@H](O)COS(C)(=O)=O
Cmax (human patients, plasma; intravenous infusion, 14 g/m^2, day -4, 2-hour infusion): 435000 ng/mL

Cc1nc(-c2ccc(OCC(C)C)c(C#N)c2)sc1C(=O)O
Cmax (human male, plasma; oral, 80 mg once daily, day 7 or 21, arithmetic mean): 1760 ng/mL

COc1cccc(-c2ccc(NC(=O)C3=C(C(=O)O)CCC3)c(F)c2)c1
Cmax (healthy male humans, plasma; oral, 40 mg once daily, day 13, geometric mean): 10900 ng/mL

NC1(C(=O)N[C@@H](CCO)c2ccc(Cl)cc2)CCN(c2ncnc3[nH]ccc23)CC1
Cmax (human, plasma; 400 mg twice daily, day 8, geometric mean): 1220 ng/mL

CC(C)NC[C@@H](C(=O)N1CCN(c2ncnc3c2[C@H](C)C[C@H]3O)CC1)c1ccc(Cl)cc1
Cmax (human, Moderate hepatic function, plasma; oral, 100 mg single dose, NCI classification, geometric mean): 97.1 ng/mL

CC(C)(C(=O)NCC(F)(F)C(F)(F)F)C(=O)N[C@@H]1C(=O)Nc2ccccc2-c2ccccc21
Cmax (human, plasma; oral, 10 mg, day 15, together with: bevacizumab): 189 ng/mL

Cc1[nH]c(/C=C2\C(=O)Nc3ccccc32)c(C)c1CCC(=O)O
Cmax (human patients; oral, 400 mg/m^2 three times daily, after meal, dose 82): 6050 ± 2410 ng/mL

COC(=O)N[C@@H](C)CNc1nccc(-c2cn(C(C)C)nc2-c2cc(Cl)cc(NS(C)(=O)=O)c2F)n1
Cmax (human, plasma; oral, 450 mg QD, day 1, geometric mean, together with: binimetinib 45 mg BID): 6060 ng/mL

CCc1cc2c(cc1N1CCC(N3CCOCC3)CC1)C(C)(C)c1[nH]c3cc(C#N)ccc3c1C2=O
Cmax (LC-MS, noncompartmental; human patients under sample A years, plasma; oral, 300 mg/day, cycle 1 day 21, geometric mean): 480 ng/mL

O=C(c1ccc(OCCN2CCCCC2)cc1)c1c(-c2ccc(O[C@@H]3O[C@H](C(=O)O)[C@@H](O)[C@H](O)[C@H]3O)cc2)sc2cc(O)ccc12
Cmax (human, plasma; oral, 60 mg raloxifene, chronic green tea): 64.1 nM

CO[C@H]1C[C@@H]2CC[C@@H](C)[C@@](O)(O2)C(=O)C(=O)N2CCCC[C@H]2C(=O)O[C@H]([C@H](C)C[C@@H]2CC[C@@H](O)[C@H](OC)C2)CC(=O)[C@H](C)/C=C(\C)[C@@H](O)[C@@H](OC)C(=O)[C@H](C)C[C@H](C)/C=C/C=C/C=C/1C
Cmax (human, whole blood; oral, 30 mg, together with: grapefruit juice): 82.1 ng/mL

CN1CC[C@H](c2c(O)cc(O)c3c(=O)cc(-c4ccccc4Cl)oc23)[C@H](O)C1
Cmax (human patients, phase I, plasma; intravenous, 60 mg/m^2, cycle 1, mean, together with: doxorubicin 60): 3290 nM

COc1cc2nccc(Oc3ccc(NC(=O)NC4CC4)c(Cl)c3)c2cc1C(N)=O
Cmax (human, plasma; oral, 5 mg, arithmetic mean, together with: placebo): 45.1 ng/mL

CNCc1ccc(-c2[nH]c3cc(F)cc4c3c2CCNC4=O)cc1
Cmax (human cancer patients, plasma; intravenous, 18 mg/m2, day 1, together with: temozolomide 200): 837 ng/mL

CCOc1cc([C@@H](CS(C)(=O)=O)N2C(=O)c3cccc(NC(C)=O)c3C2=O)ccc1O[C@@H]1O[C@H](C(=O)O)[C@@H](O)[C@H](O)[C@H]1O
Cmax (healthy human controls, plasma; oral, 30 mg apremilast, matched to moderate impairment): 166 ng/mL

CC(C)[C@@H](CS(=O)(=O)C(C)C)N1C(=O)[C@@](C)(CC(=O)O)C[C@H](c2cccc(Cl)c2)[C@H]1c1ccc(Cl)cc1
Cmax (human, plasma; oral, 60 mg, old tablet, fasted, arithmetic mean): 410 ng/mL

CCn1c(=O)c2c(nc(/C=C/c3ccc(O)c(OC)c3)n2C)n(CC)c1=O
Cmax (healthy humans, plasma; oral, 40 mg, together with: rifampin 600 mg/day): 7.25 ng/mL

C/C(=C\c1csc(C)n1)[C@@H]1C[C@@H]2O[C@]2(C)CCC[C@H](C)[C@H](O)[C@@H](C)C(=O)C(C)(C)[C@@H](O)CC(=O)N1
Cmax (human, plasma; intravenous infusion, 70 mg, 3 h infusion): 486 ng/mL and 273 ng/mL and 287 ng/mL and 201 ng/mL and 433 ng/mL and 277 ng/mL and 266 ng/mL and 187 ng/mL

N[C@]1(C(=O)O)[C@H]2[C@@H](C[C@@H]1F)[C@@H]2C(=O)O
Cmax (human, fed, plasma; oral, 10 mg multiple, day 14): 37.7 ng/mL

CC(C)(/C=C(\C#N)C(=O)N1CCC[C@@H](n2nc(-c3ccc(Oc4ccccc4)cc3F)c3c(N)ncnc32)C1)N1CCN(C2COC2)CC1
Cmax (human, plasma; oral, 100 mg single dose, median): 23 ng/mL
